Results pooled from the literature.
Each line is one published result; not all experiments were run side by side. Numbers after ± are the reported error.
Isochorismatase domain-containing protein 1: Isochorismatase domain-containing protein 1 (Homo sapiens, UniProt Q96CN7)
Sequence of UniProt Q96CN7 (whole entry, looked up): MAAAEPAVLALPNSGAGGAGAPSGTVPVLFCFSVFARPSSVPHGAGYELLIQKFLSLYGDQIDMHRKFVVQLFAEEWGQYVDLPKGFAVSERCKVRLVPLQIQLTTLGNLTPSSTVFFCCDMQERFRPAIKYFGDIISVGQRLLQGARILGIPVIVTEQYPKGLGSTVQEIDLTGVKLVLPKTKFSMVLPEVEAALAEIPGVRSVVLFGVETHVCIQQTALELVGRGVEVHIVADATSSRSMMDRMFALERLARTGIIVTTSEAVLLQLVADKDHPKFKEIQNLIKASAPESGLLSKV
Sequence of UniProt Q15391 (whole entry, looked up): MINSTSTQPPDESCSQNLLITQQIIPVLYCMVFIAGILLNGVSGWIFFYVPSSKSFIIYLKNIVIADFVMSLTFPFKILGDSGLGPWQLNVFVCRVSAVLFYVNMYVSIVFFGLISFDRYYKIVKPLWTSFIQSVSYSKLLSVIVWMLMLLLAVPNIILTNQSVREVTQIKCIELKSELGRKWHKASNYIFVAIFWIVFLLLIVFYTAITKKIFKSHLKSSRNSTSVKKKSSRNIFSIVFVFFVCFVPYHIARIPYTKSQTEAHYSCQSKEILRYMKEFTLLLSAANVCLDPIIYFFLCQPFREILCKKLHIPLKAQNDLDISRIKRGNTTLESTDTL
Sequence of UniProt P30988 (whole entry, looked up): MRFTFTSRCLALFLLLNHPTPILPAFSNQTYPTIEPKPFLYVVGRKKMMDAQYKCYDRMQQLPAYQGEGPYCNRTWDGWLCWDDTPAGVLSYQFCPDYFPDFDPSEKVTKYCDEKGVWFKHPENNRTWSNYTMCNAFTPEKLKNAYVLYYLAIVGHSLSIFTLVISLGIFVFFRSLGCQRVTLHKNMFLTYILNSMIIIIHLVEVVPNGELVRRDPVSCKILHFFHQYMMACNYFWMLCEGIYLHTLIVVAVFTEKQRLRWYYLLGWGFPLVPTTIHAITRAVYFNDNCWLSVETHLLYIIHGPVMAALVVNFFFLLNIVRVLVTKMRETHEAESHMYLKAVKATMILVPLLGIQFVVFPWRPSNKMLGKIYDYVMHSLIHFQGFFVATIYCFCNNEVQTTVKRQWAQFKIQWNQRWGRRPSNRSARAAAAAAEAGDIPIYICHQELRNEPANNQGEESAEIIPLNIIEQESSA
Sequence of UniProt P07339 (whole entry, looked up): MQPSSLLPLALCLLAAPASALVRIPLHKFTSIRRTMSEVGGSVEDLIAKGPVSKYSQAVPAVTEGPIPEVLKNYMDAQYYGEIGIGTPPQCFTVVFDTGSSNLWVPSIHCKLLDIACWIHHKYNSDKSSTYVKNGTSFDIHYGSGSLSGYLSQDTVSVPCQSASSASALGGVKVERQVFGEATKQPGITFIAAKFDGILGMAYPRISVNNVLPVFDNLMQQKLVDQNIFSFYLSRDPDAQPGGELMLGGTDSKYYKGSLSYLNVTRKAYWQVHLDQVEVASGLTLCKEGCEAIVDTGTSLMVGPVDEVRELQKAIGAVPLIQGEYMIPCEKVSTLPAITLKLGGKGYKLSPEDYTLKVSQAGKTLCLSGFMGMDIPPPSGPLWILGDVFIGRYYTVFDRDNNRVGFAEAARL
Sequence of UniProt Q9BXJ9 (whole entry, looked up): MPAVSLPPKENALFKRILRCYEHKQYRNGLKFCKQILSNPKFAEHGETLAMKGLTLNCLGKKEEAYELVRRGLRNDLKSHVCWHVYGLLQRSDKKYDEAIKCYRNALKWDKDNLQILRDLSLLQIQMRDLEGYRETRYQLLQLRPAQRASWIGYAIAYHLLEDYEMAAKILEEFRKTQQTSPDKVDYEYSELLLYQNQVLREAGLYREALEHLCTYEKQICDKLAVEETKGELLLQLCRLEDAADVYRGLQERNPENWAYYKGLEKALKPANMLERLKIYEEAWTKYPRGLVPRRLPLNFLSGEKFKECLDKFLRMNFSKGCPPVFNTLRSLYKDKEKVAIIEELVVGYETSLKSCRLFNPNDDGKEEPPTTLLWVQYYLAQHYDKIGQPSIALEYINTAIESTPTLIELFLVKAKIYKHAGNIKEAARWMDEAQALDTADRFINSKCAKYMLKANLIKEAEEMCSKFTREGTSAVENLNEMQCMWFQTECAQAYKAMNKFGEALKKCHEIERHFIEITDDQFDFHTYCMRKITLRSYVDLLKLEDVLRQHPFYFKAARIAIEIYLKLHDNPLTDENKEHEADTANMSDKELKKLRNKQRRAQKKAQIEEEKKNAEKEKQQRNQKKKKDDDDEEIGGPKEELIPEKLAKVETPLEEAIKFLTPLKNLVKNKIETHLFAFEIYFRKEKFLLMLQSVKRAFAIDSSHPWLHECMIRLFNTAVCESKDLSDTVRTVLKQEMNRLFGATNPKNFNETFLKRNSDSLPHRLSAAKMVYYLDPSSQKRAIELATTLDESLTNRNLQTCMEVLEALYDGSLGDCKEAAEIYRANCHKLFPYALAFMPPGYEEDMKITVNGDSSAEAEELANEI
Sequence of UniProt Q9H4M7 (whole entry, looked up): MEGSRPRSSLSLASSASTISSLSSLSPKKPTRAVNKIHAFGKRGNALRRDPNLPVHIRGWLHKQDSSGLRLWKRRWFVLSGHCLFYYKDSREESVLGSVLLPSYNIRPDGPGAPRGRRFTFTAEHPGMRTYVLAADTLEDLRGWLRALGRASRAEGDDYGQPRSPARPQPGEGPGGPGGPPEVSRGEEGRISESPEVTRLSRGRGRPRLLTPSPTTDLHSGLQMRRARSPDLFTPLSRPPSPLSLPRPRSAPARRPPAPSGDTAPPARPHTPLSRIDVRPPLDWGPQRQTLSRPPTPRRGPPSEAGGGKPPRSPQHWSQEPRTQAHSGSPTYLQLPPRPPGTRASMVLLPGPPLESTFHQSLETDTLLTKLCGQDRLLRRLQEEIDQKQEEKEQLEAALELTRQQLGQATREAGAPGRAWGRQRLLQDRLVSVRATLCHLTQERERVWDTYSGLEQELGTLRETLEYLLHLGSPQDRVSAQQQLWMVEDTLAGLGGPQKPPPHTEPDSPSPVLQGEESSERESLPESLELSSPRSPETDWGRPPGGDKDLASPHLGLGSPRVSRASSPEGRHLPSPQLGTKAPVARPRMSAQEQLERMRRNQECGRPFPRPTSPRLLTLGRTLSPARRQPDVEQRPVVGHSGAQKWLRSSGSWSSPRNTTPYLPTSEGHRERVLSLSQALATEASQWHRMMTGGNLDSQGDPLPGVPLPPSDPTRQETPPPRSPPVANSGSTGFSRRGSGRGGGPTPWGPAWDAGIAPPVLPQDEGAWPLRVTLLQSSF
Sequence of UniProt P14635 (whole entry, looked up): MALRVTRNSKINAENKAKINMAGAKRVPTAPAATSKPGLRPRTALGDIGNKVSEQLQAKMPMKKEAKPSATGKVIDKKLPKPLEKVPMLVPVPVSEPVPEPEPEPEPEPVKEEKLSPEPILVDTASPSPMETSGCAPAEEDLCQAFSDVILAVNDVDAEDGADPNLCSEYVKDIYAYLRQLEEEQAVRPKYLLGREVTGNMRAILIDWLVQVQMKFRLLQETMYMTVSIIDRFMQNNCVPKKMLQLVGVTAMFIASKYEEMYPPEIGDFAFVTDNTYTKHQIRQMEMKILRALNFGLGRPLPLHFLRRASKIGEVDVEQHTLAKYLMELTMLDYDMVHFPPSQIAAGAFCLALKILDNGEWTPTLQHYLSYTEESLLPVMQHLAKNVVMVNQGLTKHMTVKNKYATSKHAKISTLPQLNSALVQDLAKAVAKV
Sequence of UniProt O60895 (whole entry, looked up): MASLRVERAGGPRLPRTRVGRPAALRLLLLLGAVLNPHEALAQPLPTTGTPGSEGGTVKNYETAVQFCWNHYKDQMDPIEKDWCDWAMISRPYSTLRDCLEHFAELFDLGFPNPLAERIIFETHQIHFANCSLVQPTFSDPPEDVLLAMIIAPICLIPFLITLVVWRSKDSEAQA

`CCCCC/C=C\C/C=C\CCCCCCCC(=O)O` gave a Kd of 0.00355 ± 0.0019 µM (5-lipoxygenase (Eriocheir sinensis); binding, microscale thermophoresis; 25 °C).
For `CC(C)(COP(=O)(O)OP(=O)(O)OC[C@H]1O[C@@H](n2cnc3c(N)ncnc32)[C@H](O)[C@@H]1OP(=O)(O)O)[C@@H](O)C(=O)NCCC(=O)NCCS`, the Kd was 2.09 µM (N-alpha-acetyltransferase 15, NatA auxiliary subunit (Homo sapiens, UniProt Q9BXJ9); competitor, competition MS pulldown; SW-620 cell lysate; with: photo-immobilized beads).
`CCCN1CCN(c2ccc(-c3cncc(Cl)c3N3CCC4(CCNC4=O)CC3)cc2)CC1` gave a Kd of 7.04 µM (G2/mitotic-specific cyclin-B1 (Homo sapiens, UniProt P14635); SILAC displacement; LS174T-L5 cell lysate).
With `O=C(COc1ccc(C2=[N+]3C(=Cc4ccc(-c5cccs5)n4[B-]3(F)F)C=C2)cc1)NCCCCCNC(=O)[C@H]1O[C@H](OP(=O)(O)OP(=O)(O)OCC2OC(n3ccc(=O)[nH]c3=O)C(O)C2O)[C@H](O)[C@@H](O)[C@@H]1O` (stereo partly drawn) the Kd was 0.0305 ± 0.0144 µM (P2Y purinoceptor 14 (P2RY14, Homo sapiens, UniProt Q15391); binding, agonist, NanoBRET whole cell; HEK293).
For `CC(C)CC(=O)N[C@H](C(=O)N[C@H](C(=O)N[C@@H](CC(C)C)[C@@H](O)CC(=O)N[C@@H](C)C(=O)N[C@@H](CC(C)C)[C@@H](O)CC(N)=O)C(C)C)C(C)C`, the Kd was 0.724 µM (Cathepsin D (CTSD, Homo sapiens, UniProt P07339); binding, surface plasmon resonance).
Under “number of kinases inhibited”, `Cc1nn(CC(F)(F)F)cc1Nc1ncc(C2CC2)c(NCCc2c[nH]cn2)n1` is recorded as 0 (16-kinase panel; radiometric; 1 µM, ATP at Km; below 10% of control).
`CC(=N)N` gave a Kd of roughly 18000 µM (acetylcholine receptor, Rana temporaria; channel block, voltage clamp fluctuation; endplate; pure and Na+ mixture).
With `COc1c(O)c(C)cc2c1C(=O)c1c(ccc(O)c1O)C2=O` the viability was 83.9 ± 8.27% (HK-2 co-cultured with HepaRG; MTT; 33.33 µM, 24 h; reference: untreated control).
`O=c1c(O)c(-c2ccc(O)c(O)c2)oc2cc(O)cc(O)c12` has a Kd of 0.32 ± 0.069 µM (Small ribosomal subunit protein uS2 (RPSA, Homo sapiens, UniProt P08865); binding, tryptophan fluorescence quenching).
With `CC(=O)N([O-])CCCCCNC(=O)CCC(=O)N([O-])CCCCCNC(=O)CCC(=O)N([O-])CCCCCN.[Fe+3]` the Kd was roughly 1 µM (uncharacterized protein (Bordetella pertussis, UniProt Q7VXW9); siderophore binding, fluorescence quenching titration; pH 6.5, room temperature, 100 mM NaCl, with: ferric siderophore).
The Kd of `O=C(CCCCCCC(=O)Nc1ccc([C@H]2O[C@@H](CSc3nc(-c4ccccc4)c(-c4ccccc4)o3)C[C@@H](c3ccc(CO)cc3)O2)cc1)NO` is reported as greater than 30.2 µM (Isochorismatase domain-containing protein 1; inhibitor, competition pulldown; SW620 and MV4-11 lysate; 1 h).
`O=C(O)c1cc(O)c2c(c1)C(=O)c1cccc(O[C@@H]3O[C@H](CO)[C@@H](O)[C@H](O)[C@H]3O)c1C2=O` gave a cell viability of 93 ± 10.1% (HK-2 co-cultured with HepaRG; MTT; 266.67 µM, 24 h; reference: untreated control).
With `CCCC(CCC)C(=O)O` the Kd was greater than 3020 µM (Isochorismatase domain-containing protein 1; inhibitor, competition pulldown; SW620 and MV4-11 lysate; 1 h).
The Kd of `CCOc1ccc(C(=O)CC(SCc2ccc(Cl)cc2)C(=O)O)cc1` (stereo not drawn) is reported as 18.1 µM (Pleckstrin homology domain-containing family A member 4, PH domain (PLEKHA4, Homo sapiens, UniProt Q9H4M7); binding, ITC; 25 °C, racemic compound).
`Cn1cc(CNCC2CCN(c3ncc(C(=O)NO)cn3)CC2)c2ccccc21` has a Kd of greater than 30.2 µM (Isochorismatase domain-containing protein 1; inhibitor, competition pulldown; SW620 and MV4-11 lysate; 1 h).
`c1cc(CN2CCOCC2)cc(Nc2ncc(C3CC3)c(NCCc3c[nH]cn3)n2)c1`: “number of kinases inhibited” 6 (16-kinase panel; radiometric; 1 µM, ATP at Km; below 10% of control).
For `Nc1ccccc1NC(=O)c1ccc(CNC(=O)OCc2cccnc2)cc1`, the Kd was greater than 30.2 µM (Isochorismatase domain-containing protein 1; inhibitor, competition pulldown; SW620 and MV4-11 lysate; 1 h).
`CC(C)C[C@H](NC(=O)[C@H](CCCNC(=N)N)NC(=O)[C@@H](NC(=O)[C@H](CC(C)C)NC(=O)[C@H](Cc1ccccc1)NC(=O)[C@H](CC(N)=O)NC(=O)[C@H](C)NC(=O)CCCCCNC(=S)Nc1ccc2c(c1)C(=O)OC21c2ccc(O)cc2Oc2cc(O)ccc21)C(C)C)C(=O)N[C@@H](CCC(N)=O)C(=O)N[C@H](C(=O)N[C@@H](Cc1ccc(O)cc1)C(=O)N1CCC[C@H]1C(=O)N[C@@H](CCCNC(=N)N)C(=O)N[C@H](C(=O)N[C@@H](CC(N)=O)C(=O)N[C@H](C(=O)NCC(=O)N[C@@H](C)C(=O)N[C@@H](CC(N)=O)C(=O)N[C@H](C(=O)N[C@@H](Cc1ccc(O)cc1)C(N)=O)[C@@H](C)O)C(C)C)[C@@H](C)O)[C@@H](C)O` has a Kd of 1.62 µM (Amylin receptor AMY2; CALCR/RAMP2, extracellular domains (Homo sapiens, UniProt O60895+P30988); peptide binding, fluorescence polarization; pH 7.4, MBP-CTR ECD with 100 µM RAMP2 ECD).
